# Experimental data of several laboratories.
# Each line is one published result; not all experiments were run side by side. Numbers after ± are the reported error.
SMILES,cell line,assay,system,conditions,endpoint,value
NCCCC[C@H](NC(=O)[C@H](Cc1ccc(O)cc1)NC(=O)[C@H](CCCCN)NC(=O)[C@H](Cc1c[nH]c2ccccc12)NC(=O)[C@H](Cc1ccccc1)NC(=O)[C@H](Cc1ccccc1)NC(=O)Cc1ccc(-c2ccccc2)cc1)C(=O)NCC(=O)N[C@@H](Cc1c[nH]cn1)C(=O)N1CCC[C@H]1C(=O)NCC(=O)NCC(=O)N1CCC[C@H]1C(=O)N[C@@H](CCC(N)=O)C(=O)N[C@@H](CC(=O)O)C(=O)N[C@@H](CC(=O)O)C(=O)N[C@@H](CC(=O)O)C(=O)N[C@@H](CC(=O)O)C(=O)N[C@@H](CC(=O)O)C(=O)N[C@@H](CC(=O)O)C(=O)O,mouse bone marrow macrophages,CCK-8,,"concentration not given, 24 h",cytotoxicity,not toxic
CC(=O)Oc1ccc(Cn2cc(F)c(=O)[nH]c2=O)cc1C1OC(c2ccccc2)=NN1C(C)=O (stereo not drawn),HEL fibroblasts,"cell morphology, microscopy",,,minimum cytotoxic concentration,100 µM
CC=C(C)C(=O)OC1C(O)C2OC(COC(=O)CCC(=O)CCCCCCC(CCCCC)OC3OC(C)C(O)C(O)C3O2)C1OC(=O)C=Cc1ccccc1 (stereo not drawn),U-937,cytotoxicity,,,IC50,0.0725 µM
CCCCCCCCCCOc1c(O)cc(C(=O)OC2Cc3c(O)cc(O)cc3OC2c2cc(O)c(O)c(O)c2)cc1O (stereo not drawn),U-87 MG,CCK-8,,"50 µM, 24 h",cell death,13.9%
CC(=O)OC[C@H]1O[C@@H](NC(=O)NC(=O)[C@@H](C)Cc2ccc(C(C)C)cc2)[C@H](OC(C)=O)[C@@H](OC(C)=O)[C@@H]1OC(C)=O,HEL fibroblasts,cell morphology,,3 days,minimal cytotoxic concentration,> 100 µM
CC(=O)N[C@@H](CC(=O)O)C(=O)N[C@@H](CCC(=O)O)C(=O)N[C@@H](CC(=O)O)C(=O)N[C@H](C(=O)NCC(=O)NCC(=O)NCC(=O)NCCNC(=O)OCC1c2ccccc2-c2ccccc21)C(C)C,HepG2,,,"200 µM, 2 h, 37 °C",unmetabolized fraction,62.9%
c1ccc2c(Nc3c4c(nc5ccccc35)CCCC4)cccc2c1,HepG2,MTT,,"50 µM, 24 h, 10% FBS",inhibition,66.4 ± 2.85%
O=C1CCc2ccc(OCCCCCCSC(=S)N3CCCCC3)cc2N1,PC-12,CCK-8,,"up to 12.5 µM, 24 h",cytotoxicity,not toxic
CC(=O)Oc1ccc(Cn2cc(C)c(=O)[nH]c2=O)cc1C1OC(c2ccc(Cl)cc2)=NN1C(C)=O (stereo not drawn),HEL fibroblasts,"cell morphology, microscopy",,,minimum cytotoxic concentration,≥ 20 µM
CCCCn1cc(C(=O)O)c(=O)c2cc(F)c(Nc3cccc(Cl)c3)c([N+](=O)[O-])c21,SW-620,"cell growth, SRB",,72 h,IC50,110 ± 4.75 µg/mL
[Ga+3].[O-]c1ccc(Br)c2cccnc12.[O-]c1ccc(Br)c2cccnc12.[O-]c1ccc(Br)c2cccnc12,HCT-116,MTT,,"25 µM, 72 h",cytotoxicity,95.2%
NCCc1ccc(-c2nc3cc(OCCF)ccc3n3cccc23)cc1,HEK293 DR-GFP,"homologous recombination, inhibitor, DR-GFP reporter",,max tested 40 µM,maximum tolerated concentration,10 µM
CC(C)(C)c1ccc(Nc2c3c(nc4ccccc24)CCCC3)cc1,HepG2,MTT,,"50 µM, 24 h, 10% FBS",inhibition,-30.9 ± 1.54%
O=C1C(O)=C(CN2CC3CCC2CC3)C(=O)c2ccccc21,BGM (monkey kidney),MTT,10% FCS,24 h,median lethal concentration,≥ 3360 µM
CCCCn1cc(C(=O)O)c(=O)c2cc(F)c3c(nnn3-c3cccc(Cl)c3)c21,SW-620,"cell growth or viability, SRB",,,IC50,110 µM
Cc1cccnc1Nc1c2c(nc3ccccc13)CCC(C)C2 (stereo not drawn),HepG2,MTT,,"50 µM, 24 h, 10% FBS",inhibition,-10.1 ± 0.34%
CC(=O)Oc1ccc(Cn2ccc(=O)[nH]c2=O)cc1C1OC(c2ccccc2)=NN1C(C)=O (stereo not drawn),HEL fibroblasts,"cell morphology, microscopy",,,minimum cytotoxic concentration,100 µM
CCCCn1cc(C(=O)O)c(=O)c2cc(F)c(Nc3ccccc3Cl)c(N)c21,HCT-116,"cell growth or viability, SRB",,,IC50,106 µM
CC(=O)OC[C@H]1O[C@@H](NC(=O)CCCc2ccc3c(c2)CCCC3)[C@H](OC(C)=O)[C@@H](OC(C)=O)[C@@H]1OC(C)=O,HEL fibroblasts,cell morphology,,3 days,minimal cytotoxic concentration,> 100 µM
CC(=O)Oc1ccc(Cn2cc(F)c(=O)[nH]c2=O)cc1C1OC(c2cccc(Cl)c2)=NN1C(C)=O (stereo not drawn),HEL fibroblasts,"cell morphology, microscopy",,,minimum cytotoxic concentration,100 µM
COc1c(OC(=O)N(C)c2ccc(Cl)cc2)cc2oc3cc4c(c(O)c3c(=O)c2c1CC=C(C)C)C=CC(C)(C)O4,PC-12,"cell proliferation, MTT",,"10 µM, 24 h",inhibition,0%
CC[C@H](C)[C@H](NC(=O)[C@H](CCCCN)NC(=O)[C@H](C)NC(=O)[C@H](CCCNC(=N)N)NC(=O)[C@H](CCCCN)NC(=O)[C@H](CC(N)=O)NC(=O)[C@H](CCC(N)=O)NC(=O)[C@H](Cc1ccccc1)NC(=O)[C@H](Cc1c[nH]c2ccccc12)NC(=O)[C@@H](NC(=O)[C@H](CCCCN)NC(=O)[C@@H](NC(=O)[C@H](CCC(N)=O)NC(=O)[C@H](CO)NC(=O)[C@H](CCCNC(=N)N)NC(=O)[C@@H]1CCCN1C(=O)[C@H](CCCNC(=N)N)NC(=O)[C@H](CCCCN)NC(=O)[C@H](CC(=O)O)NC(=O)[C@H](CCC(=O)O)NC(=O)[C@H](CCCCN)NC(=O)[C@H](CC(N)=O)NC(=O)[C@@H]1CCCN1C(=O)[C@H](CC(N)=O)NC(=O)[C@H](CCCCN)NC(=O)[C@H](CCCCN)NC(=O)[C@H](CCCCN)NC(=O)[C@@H]1CCCN1C(=O)[C@H](CCCCN)NC(=O)[C@H](CCCNC(=N)N)NC(=O)[C@H](CO)NC(=O)[C@H](CCCNC(=N)N)NC(=O)CNC(=O)CNC(=O)CNC(=O)CNC(=O)CNC(=O)CCCC[C@@H]1SC[C@@H]2NC(=O)N[C@@H]21)[C@@H](C)CC)[C@@H](C)CC)C(=O)N[C@@H](CCCCN)C(=O)N[C@@H](CCCCN)C(N)=O,CHO pgsA-745 (GAG-deficient),MALDI-TOF MS,,"7 µM, 1 h, added: heparin up to 7.2 µg/mL",cellular uptake,~20 pmol
Cc1ccc(C(C)C)cc1.Cn1ccnc1CNCCNc1ccnc2cc(Cl)ccc12.[Cl-].[Cl][Ru+],CHO,MTT,,"concentration not given, highest tested concentration",cytotoxicity,not toxic
CN1C/C(=C\c2ccccc2)C2=NN(C(N)=S)[C@H](c3ccccc3)[C@@H]2C1,CHO,resazurin,,"48 h, 10% FBS",highest non-cytotoxic concentration,> 200 µg/mL
CCCCCCCCCCCC(=O)NCCCC[C@H](NC(=O)[C@H](C)NC(=O)[C@H](C)NC(=O)[C@H](C)NC(=O)[C@H](C)NC(=O)[C@H](C)NC(=O)[C@H](C)NC(=O)[C@H](CCCCN)NC(=O)[C@H](CCCCN)NC(=O)[C@H](CCCCNC(=O)CC[C@H](NC(=O)[C@@H](NC(=O)[C@@H]1CSSC[C@H](NC(=O)[C@H](CC(=O)O)NC(=O)[C@@H](N)Cc2c[nH]c3ccccc23)C(=O)N[C@@H](CC(C)C)C(=O)N[C@@H](CC(=O)O)C(=O)N[C@@H](CC(N)=O)C(=O)N[C@@H](CCCNC(=N)N)C(=O)N[C@@H]([C@@H](C)CC)C(=O)NCC(=O)N[C@@H](CCCNC(=N)N)C(=O)N[C@@H](CCCNC(=N)N)C(=O)N[C@@H](CCC(N)=O)C(=O)N1)C(C)C)C(=O)N[C@@H](CC(C)C)C(N)=O)NC(=O)CC[C@H](NC(=O)[C@@H](NC(=O)[C@@H]1CSSC[C@H](NC(=O)[C@H](CC(=O)O)NC(=O)[C@@H](N)Cc2c[nH]c3ccccc23)C(=O)N[C@@H](CC(C)C)C(=O)N[C@@H](CC(=O)O)C(=O)N[C@@H](CC(N)=O)C(=O)N[C@@H](CCCNC(=N)N)C(=O)N[C@@H]([C@@H](C)CC)C(=O)NCC(=O)N[C@@H](CCCNC(=N)N)C(=O)N[C@@H](CCCNC(=N)N)C(=O)N[C@@H](CCC(N)=O)C(=O)N1)C(C)C)C(=O)N[C@@H](CC(C)C)C(N)=O)C(N)=O,MDA-MB-231,MTS,,,cytotoxic concentration,> 1 µM
CCc1ccc([C@H](C)CC(=O)N[C@@H]2O[C@H](COC(C)=O)[C@@H](OC(C)=O)[C@H](OC(C)=O)[C@H]2OC(C)=O)cc1,HEL fibroblasts,cell morphology,,3 days,minimal cytotoxic concentration,> 100 µM
CCN(CC)CC#CCO[C@H]1CC[C@H](O)[C@@H]2[C@H]1[C@H]1C[C@@H]3[C@@]4(C)CCC[C@@](C)(C(=O)OC)[C@@H]4CC[C@@]23C=C1C(C)C,BHK-21-hACE2,,,"20.0 µM, 48 (unit not given)",viability,81.5%
COc1ccc(N(C)C(=O)Oc2cc3oc4cc5c(c(O)c4c(=O)c3c(CC=C(C)C)c2OC)C=CC(C)(C)O5)cc1,PC-12,"cell proliferation, MTT",,"10 µM, 24 h",inhibition,0%
CC(C)C[C@@H]1NC(=O)[C@@H](Cc2c[nH]c3ccccc23)NC(=O)[C@H](CCCN)NC(=O)[C@@H](CO)NC(=O)[C@H](CCC(N)=O)NC(=O)[C@@H](CCC(=O)O)NC(=O)[C@H](CO)NC(=O)[C@@H](Cc2c[nH]c3ccccc23)NC1=O,erythrocytes,hemolysis,,,HD50,> 500 µM
CC[C@H](C)[C@H](NC(=O)[C@H](C)NC(=O)CNC(=O)[C@H](CCCCN)NC(=O)[C@H](CC(N)=O)NC(=O)[C@H](CO)NC(=O)CNC(=O)[C@@H](NC(=O)[C@H](CC(=O)O)NC(=O)[C@H](CCC(=O)O)NC(=O)[C@H](C)NC(=O)[C@H](Cc1ccccc1)NC(=O)[C@H](Cc1ccccc1)NC(=O)[C@@H](NC(=O)[C@H](CC(C)C)NC(=O)[C@H](CCCCN)NC(=O)[C@H](CCC(N)=O)NC(=O)[C@H](Cc1c[nH]cn1)NC(=O)[C@H](CCCNC(=N)N)NC(=O)[C@@H](NC(=O)[C@H](CCC(=O)O)NC(=O)[C@H](Cc1ccccc1)NC(=O)CNC(=O)[C@H](CO)NC(=O)[C@H](CC(=O)O)NC(=O)[C@H](Cc1c[nH]cn1)NC(=O)CNC(=O)[C@H](Cc1ccccc1)NC(=O)[C@H](CCC(=O)O)NC(=O)[C@H](C)NC(=O)[C@@H](N)CC(=O)O)C(C)C)C(C)C)C(C)C)C(=O)N[C@H](C(=O)NCC(=O)N[C@@H](CC(C)C)C(=O)N[C@@H](CCSC)C(=O)N[C@H](C(=O)NCC(=O)NCC(=O)N[C@H](C(=O)N[C@H](C(=O)N[C@H](C(=O)N[C@@H](C)C(=O)O)[C@@H](C)CC)C(C)C)C(C)C)C(C)C)[C@@H](C)CC,NGF-differentiated PC-12 cells,MTT,,"10 µM, 24 h",cytotoxicity,not toxic

# A few entries again:
SMILES,cell line,assay,system,conditions,endpoint,value
CC=C(C)C(=O)OC1C(O)C2OC(COC(=O)CCC(=O)CCCCCCC(CCCCC)OC3OC(C)C(O)C(O)C3O2)C1OC(=O)C=Cc1ccccc1 (stereo not drawn),U-937,cytotoxicity,,,IC50,0.0725 µM
CC(C)(C)c1ccc(Nc2c3c(nc4ccccc24)CCCC3)cc1,HepG2,MTT,,"50 µM, 24 h, 10% FBS",inhibition,-30.9 ± 1.54%
CCc1ccc([C@H](C)CC(=O)N[C@@H]2O[C@H](COC(C)=O)[C@@H](OC(C)=O)[C@H](OC(C)=O)[C@H]2OC(C)=O)cc1,HEL fibroblasts,cell morphology,,3 days,minimal cytotoxic concentration,> 100 µM
